# Measurements gathered from unrelated publications.
# Compare with care: the assays were run in different laboratories.
# Sox: Sox, HMG box (Pigoraptor chileana)
# KAT6A winged helix 2, GST fusion: Histone acetyltransferase KAT6A, winged helix 2, GST fusion (KAT6A, Homo sapiens, UniProt Q92794, residues 85-181)
# IRF5 K96S/S451D/S453D/S456D/S462D full length, phosphomimetic: Interferon regulatory factor 5, full length, phosphomimetic (IRF5, Homo sapiens, UniProt Q13568-2, residues 1-514, K96S/S451D/S453D/S456D/S462D)
# T1: Sox, HMG box (Pigoraptor chileana); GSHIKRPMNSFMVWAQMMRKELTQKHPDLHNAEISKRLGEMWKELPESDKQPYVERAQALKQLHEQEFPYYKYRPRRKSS
Substance,target,assay,system,setting,how to read,quantity,result
GAGTCGTCTCGTCAGCACTATAGTTCCGTAGAGCACTCAGGTC,"T1, Sox, HMG box (Pigoraptor chileana)",Spec-seq,"double-stranded DNA, one strand shown, in vitro","not given, whole probe, mean of replicates","relative to: not given, lower = stronger binding",relative binding energy,-1.28 ln ratio
"PhoQ, residues 284 288 289 292 302 303 NSMLDC","PhoP, residues 12 14 15 18 19 NQCAL (Escherichia coli, UniProt P23836)","Sort-seq, refers to: YFP reporter",E. coli,"PhoQ-PhoP variant library, added: 10 µM Mg2+","relative to: high Mg2+ state, higher = stronger signaling",fold induction,15
GCCTAGCACGACGGACTAGGACTGGGGACGTGCTAGGTCTTGATTCGCTTGACGCTGCTG,"Interferon regulatory factor 5, full length, phosphomimetic (IRF5, Homo sapiens, UniProt Q13568-2, residues 1-514, S451D/S453D/S456D/S462D)",protein-binding microarray,"double-stranded DNA, one strand shown, in vitro","940 nM top, 60-bp whole probe, added: salmon DNA 0.4 mg/ml","relative to: random background probes, higher = stronger binding",fitted relative affinity,-0.73 z-score
ACACGTGT,"KAT6A winged helix 2, GST fusion",protein binding microarray,"double-stranded DNA, one strand shown, in vitro","not given, 8-mer, flanks averaged, mean of 2 arrays, mostly near background","relative to: not given, higher = stronger binding",E-score,-0.255
GCCTAGCACGTTGGGGCGGGGCGGGGTGGGTGCTAGGTCTTGATTCGCTTGACGCTGCTG,"IRF5 K96S/S451D/S453D/S456D/S462D full length, phosphomimetic",protein-binding microarray,"double-stranded DNA, one strand shown, in vitro","250 nM, 60-bp whole probe, added: salmon DNA 0.4 mg/ml","relative to: random background probes, higher = stronger binding",log fluorescence,2.4 z-score
TGACGGCA,"KAT6A winged helix 2, GST fusion",protein binding microarray,"double-stranded DNA, one strand shown, in vitro","not given, 8-mer, flanks averaged, mean of 2 arrays, mostly near background","relative to: not given, higher = stronger binding",E-score,0.143
GAGTCGTCTCGTCAGCACCATAGTTCCGTAGAGCACTCAGGTC,"T1, Sox, HMG box (Pigoraptor chileana)",Spec-seq,"double-stranded DNA, one strand shown, in vitro","not given, whole probe, mean of replicates","relative to: not given, lower = stronger binding",relative binding energy,-0.76 ln ratio
GCCTAGCACTTAGGACTGCTACCGCTTTAGTGCTAGGTCTTGATTCGCTTGACGCTGCTG,"IRF5 K96S/S451D/S453D/S456D/S462D full length, phosphomimetic",protein-binding microarray,"double-stranded DNA, one strand shown, in vitro","250 nM, 60-bp whole probe, added: salmon DNA 0.4 mg/ml","relative to: random background probes, higher = stronger binding",log fluorescence,-0.448 z-score

# Excerpt of the above:
Substance,target,assay,system,setting,how to read,quantity,result
GCCTAGCACGTTGGGGCGGGGCGGGGTGGGTGCTAGGTCTTGATTCGCTTGACGCTGCTG,"IRF5 K96S/S451D/S453D/S456D/S462D full length, phosphomimetic",protein-binding microarray,"double-stranded DNA, one strand shown, in vitro","250 nM, 60-bp whole probe, added: salmon DNA 0.4 mg/ml","relative to: random background probes, higher = stronger binding",log fluorescence,2.4 z-score
